Measured values of several laboratories.
Numbered parts are unrelated; each lists some results of a single study.
Chain of UniProt Q9Y6E0 (whole entry, looked up): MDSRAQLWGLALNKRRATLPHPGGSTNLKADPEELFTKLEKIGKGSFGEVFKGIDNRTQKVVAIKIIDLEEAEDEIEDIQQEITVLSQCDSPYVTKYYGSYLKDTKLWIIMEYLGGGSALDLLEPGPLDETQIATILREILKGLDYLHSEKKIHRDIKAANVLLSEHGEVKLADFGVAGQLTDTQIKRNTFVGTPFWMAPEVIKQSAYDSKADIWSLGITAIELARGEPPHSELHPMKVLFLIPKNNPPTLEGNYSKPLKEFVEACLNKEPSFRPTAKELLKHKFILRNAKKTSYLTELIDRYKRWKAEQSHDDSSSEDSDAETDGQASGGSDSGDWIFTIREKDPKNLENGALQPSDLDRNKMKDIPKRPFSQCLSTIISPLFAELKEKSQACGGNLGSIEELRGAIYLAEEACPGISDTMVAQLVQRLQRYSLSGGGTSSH
Chain of UniProt P29322 (whole entry, looked up): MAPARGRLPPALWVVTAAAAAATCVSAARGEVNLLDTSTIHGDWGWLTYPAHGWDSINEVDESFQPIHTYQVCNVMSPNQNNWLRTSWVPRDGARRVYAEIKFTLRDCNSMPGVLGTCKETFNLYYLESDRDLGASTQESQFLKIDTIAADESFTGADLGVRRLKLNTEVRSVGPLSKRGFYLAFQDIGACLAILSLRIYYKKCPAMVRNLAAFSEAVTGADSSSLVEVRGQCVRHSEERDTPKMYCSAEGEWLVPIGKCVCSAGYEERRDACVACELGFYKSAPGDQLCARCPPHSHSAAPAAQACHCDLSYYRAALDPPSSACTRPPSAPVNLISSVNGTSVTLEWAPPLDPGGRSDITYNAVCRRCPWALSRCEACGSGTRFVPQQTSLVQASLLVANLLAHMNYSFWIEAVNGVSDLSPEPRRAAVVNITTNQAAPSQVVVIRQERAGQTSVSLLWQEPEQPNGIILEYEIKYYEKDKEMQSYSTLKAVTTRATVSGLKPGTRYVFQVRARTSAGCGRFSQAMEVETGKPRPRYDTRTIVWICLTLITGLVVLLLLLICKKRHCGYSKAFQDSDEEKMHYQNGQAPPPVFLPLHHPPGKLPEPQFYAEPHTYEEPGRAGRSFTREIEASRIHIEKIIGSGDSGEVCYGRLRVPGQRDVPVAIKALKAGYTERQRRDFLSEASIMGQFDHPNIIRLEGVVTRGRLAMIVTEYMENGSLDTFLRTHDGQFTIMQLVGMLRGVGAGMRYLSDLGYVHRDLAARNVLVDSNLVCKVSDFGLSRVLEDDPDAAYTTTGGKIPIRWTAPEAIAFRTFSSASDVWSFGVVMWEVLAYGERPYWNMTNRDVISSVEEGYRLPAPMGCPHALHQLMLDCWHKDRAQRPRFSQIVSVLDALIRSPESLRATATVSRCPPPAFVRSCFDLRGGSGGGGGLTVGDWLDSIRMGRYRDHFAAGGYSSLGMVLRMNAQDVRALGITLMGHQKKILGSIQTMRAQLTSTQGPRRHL
Chain of UniProt Q16584 (whole entry, looked up): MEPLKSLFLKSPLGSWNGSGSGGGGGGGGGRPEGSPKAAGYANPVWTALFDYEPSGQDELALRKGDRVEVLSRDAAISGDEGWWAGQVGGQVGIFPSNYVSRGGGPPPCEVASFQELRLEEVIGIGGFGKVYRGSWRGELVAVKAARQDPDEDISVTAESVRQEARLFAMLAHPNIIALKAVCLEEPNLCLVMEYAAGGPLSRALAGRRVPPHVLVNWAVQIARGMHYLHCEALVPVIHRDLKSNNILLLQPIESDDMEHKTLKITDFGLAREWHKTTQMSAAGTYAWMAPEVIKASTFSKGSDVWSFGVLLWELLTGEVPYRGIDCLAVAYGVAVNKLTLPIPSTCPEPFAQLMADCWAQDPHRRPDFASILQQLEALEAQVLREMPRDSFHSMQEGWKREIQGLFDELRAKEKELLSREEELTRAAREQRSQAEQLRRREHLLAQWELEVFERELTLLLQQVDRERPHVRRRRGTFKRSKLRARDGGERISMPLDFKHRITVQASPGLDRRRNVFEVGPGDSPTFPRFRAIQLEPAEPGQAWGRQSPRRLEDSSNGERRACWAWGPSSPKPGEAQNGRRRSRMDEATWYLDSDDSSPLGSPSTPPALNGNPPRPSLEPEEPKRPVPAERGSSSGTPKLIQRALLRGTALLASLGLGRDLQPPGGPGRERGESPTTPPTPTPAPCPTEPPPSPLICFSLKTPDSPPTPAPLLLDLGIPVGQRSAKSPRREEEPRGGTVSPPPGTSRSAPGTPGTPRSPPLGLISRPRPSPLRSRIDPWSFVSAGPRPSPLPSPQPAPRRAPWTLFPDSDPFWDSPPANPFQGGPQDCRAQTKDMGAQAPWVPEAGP
Chain of UniProt Q9BZL6 (whole entry, looked up): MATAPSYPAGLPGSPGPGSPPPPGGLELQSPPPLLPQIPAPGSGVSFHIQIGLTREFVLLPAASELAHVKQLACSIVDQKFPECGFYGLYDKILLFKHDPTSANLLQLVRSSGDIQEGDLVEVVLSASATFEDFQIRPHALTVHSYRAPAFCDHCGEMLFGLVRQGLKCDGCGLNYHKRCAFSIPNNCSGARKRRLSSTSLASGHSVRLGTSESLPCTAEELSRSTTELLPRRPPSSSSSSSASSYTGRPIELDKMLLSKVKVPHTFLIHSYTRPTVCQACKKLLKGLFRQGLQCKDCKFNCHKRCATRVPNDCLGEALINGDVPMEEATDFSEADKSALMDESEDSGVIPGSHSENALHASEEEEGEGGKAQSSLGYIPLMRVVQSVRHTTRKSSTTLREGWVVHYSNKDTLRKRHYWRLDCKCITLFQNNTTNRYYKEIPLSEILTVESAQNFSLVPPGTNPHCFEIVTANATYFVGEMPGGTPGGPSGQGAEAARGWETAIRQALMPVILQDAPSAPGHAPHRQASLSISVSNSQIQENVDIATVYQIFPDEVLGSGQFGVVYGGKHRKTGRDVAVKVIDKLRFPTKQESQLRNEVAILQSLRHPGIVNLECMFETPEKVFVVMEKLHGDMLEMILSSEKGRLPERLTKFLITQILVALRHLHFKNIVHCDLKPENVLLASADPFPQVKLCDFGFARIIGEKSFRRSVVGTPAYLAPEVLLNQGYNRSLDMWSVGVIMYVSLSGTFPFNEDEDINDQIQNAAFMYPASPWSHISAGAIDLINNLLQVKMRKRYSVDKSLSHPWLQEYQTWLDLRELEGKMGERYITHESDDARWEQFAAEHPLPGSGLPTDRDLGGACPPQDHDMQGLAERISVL
Chain of UniProt Q8IW41 (whole entry, looked up): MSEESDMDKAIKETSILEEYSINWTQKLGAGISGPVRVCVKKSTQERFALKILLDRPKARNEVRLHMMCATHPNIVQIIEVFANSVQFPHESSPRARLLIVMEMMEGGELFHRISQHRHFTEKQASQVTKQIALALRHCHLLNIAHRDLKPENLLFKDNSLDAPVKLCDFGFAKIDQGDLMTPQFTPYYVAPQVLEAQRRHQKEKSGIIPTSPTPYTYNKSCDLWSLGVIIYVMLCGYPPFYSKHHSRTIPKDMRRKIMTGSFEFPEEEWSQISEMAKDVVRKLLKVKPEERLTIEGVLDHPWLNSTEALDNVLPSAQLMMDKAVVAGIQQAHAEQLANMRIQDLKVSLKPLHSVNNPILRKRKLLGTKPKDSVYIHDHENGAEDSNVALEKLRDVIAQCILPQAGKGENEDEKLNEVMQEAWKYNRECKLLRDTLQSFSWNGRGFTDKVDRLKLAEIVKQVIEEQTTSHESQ
Chain of UniProt O43293 (whole entry, looked up): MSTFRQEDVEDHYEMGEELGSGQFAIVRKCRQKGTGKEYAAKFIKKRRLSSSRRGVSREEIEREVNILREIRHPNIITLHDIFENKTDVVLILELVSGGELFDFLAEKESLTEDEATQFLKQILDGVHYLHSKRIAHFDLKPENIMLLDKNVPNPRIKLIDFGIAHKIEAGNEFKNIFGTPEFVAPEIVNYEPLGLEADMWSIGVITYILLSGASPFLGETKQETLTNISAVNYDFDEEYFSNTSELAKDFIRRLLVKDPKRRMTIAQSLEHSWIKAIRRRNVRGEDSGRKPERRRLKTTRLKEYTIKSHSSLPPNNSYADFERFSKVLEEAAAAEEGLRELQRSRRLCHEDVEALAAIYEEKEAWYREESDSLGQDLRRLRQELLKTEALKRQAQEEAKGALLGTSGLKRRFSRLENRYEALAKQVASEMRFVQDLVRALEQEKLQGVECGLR
Chain of UniProt Q9BUB5 (whole entry, looked up): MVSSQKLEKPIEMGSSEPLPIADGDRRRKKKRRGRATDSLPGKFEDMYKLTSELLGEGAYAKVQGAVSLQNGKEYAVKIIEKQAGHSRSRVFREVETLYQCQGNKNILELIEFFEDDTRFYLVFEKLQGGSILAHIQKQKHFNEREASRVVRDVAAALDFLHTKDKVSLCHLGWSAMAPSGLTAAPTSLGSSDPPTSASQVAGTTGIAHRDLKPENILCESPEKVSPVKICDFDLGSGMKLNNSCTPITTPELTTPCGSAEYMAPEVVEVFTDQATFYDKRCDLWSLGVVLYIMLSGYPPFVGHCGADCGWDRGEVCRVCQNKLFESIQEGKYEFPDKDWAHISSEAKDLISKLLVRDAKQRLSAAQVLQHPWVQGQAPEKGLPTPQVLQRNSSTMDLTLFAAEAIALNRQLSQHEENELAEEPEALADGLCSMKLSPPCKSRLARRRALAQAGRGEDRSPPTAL
Chain of UniProt Q8TDX7 (whole entry, looked up): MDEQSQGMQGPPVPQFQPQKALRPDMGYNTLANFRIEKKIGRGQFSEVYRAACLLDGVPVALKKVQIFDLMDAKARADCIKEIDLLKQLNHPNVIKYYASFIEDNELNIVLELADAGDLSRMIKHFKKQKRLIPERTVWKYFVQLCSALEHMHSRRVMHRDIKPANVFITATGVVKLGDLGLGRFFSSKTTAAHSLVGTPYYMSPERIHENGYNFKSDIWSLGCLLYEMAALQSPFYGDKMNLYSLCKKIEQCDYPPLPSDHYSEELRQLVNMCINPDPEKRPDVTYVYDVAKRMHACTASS

Study 1 — observed: dsDNA unwinding; technique: PicoGreen fluorescence; sample: annealed dsDNA substrate; concentration: 20 µM
Structure (SMILES)	effect
COC(=O)C1=C(C)NC(C)=C(C(=O)OCC(C)C)C1c1ccccc1[N+](=O)[O-] (stereo not shown)	-5.76%
CC(C)n1nc(C#Cc2ccccc2)c2c(N)ncnc21	3.71%
CCN1C(=O)CNc2ncc(-c3ccc(-c4nc[nH]n4)nc3C)nc21	3.99%
O=C1C2CC=CCC2C(=O)N1SC(Cl)(Cl)Cl (stereo not shown)	12.7%
O=C(O)c1ccc(SSc2ccc(C(=O)O)cn2)nc1	3.43%
Cc1ccc(-n2sc(=O)n(Cc3ccc(F)cc3)c2=O)cc1	-4.47%
COc1cccc(Nc2c(C(N)=O)cnc3c(C)cc(S(=O)(=O)c4cccc(C(=O)N(C)C)c4)cc23)c1	-2.43%
CCC(C)SSc1ncc[nH]1 (stereo not shown)	-1.1%
O=c1sn(-c2cccc3ccccc23)c(=O)n1Cc1ccccc1	9.27%
CO/N=C(\C(=O)N[C@@H]1C(=O)N2C(C(=O)O)=C(CSC(=O)c3ccco3)CS[C@H]12)c1csc(N)n1	1.43%
CCC(=O)OCN1C(=O)C=CC1=O	5.5%
O=C1C=Cc2cc(Br)ccc2C1=O	1.66%
N=C(N)NN=C1C=CC(=NNC(N)=S)C=C1	11%
CCC[C@H](NC(=O)[C@@H]1[C@H]2CCC[C@H]2CN1C(=O)[C@@H](NC(=O)[C@@H](NC(=O)c1cnccn1)C1CCCCC1)C(C)(C)C)C(=O)C(=O)NC1CC1	2.36%
O=C(O)C(Cl)Cl	1.72%
CC(C)N(CCC(=O)c1ccc2ccccc2c1)Cc1ccccc1	1.74%
O=C(O)c1ccc(N2C(=O)/C(=C\c3ccc(-c4ccc([N+](=O)[O-])cc4)o3)C=C2c2ccccc2)cc1	11.5%
N#CSc1cc(SC#N)c(N)nc1N	4.09%
S=C(S)N1CCCC1	6.05%

Study 2 — observed: enzyme activity; action: inhibitor; concentration: 0.5 µM; relative to: control
Structure (SMILES): COc1ccc2c(c[n+](C)c3c4cc5c(cc4ccc23)OCO5)c1OC
target	remaining activity [%]
STK24 (Homo sapiens, UniProt Q9Y6E0)	84.2
PRKD2 (Homo sapiens, UniProt Q9BZL6)	90.1
Protein kinase C beta type, isoform beta-II (PRKCB, Homo sapiens, UniProt P05771)	100
DAPK3 (Homo sapiens, UniProt O43293)	102
MAP3K11 (Homo sapiens, UniProt Q16584)	95
MKNK1 (Homo sapiens, UniProt Q9BUB5)	102
EPHA8 (Homo sapiens, UniProt P29322)	100
NEK7 (Homo sapiens, UniProt Q8TDX7)	98.9
PBK (Homo sapiens, UniProt Q96KB5)	102
MAPKAPK5 (Homo sapiens, UniProt Q8IW41)	83.5

Study 3 — organism: Sarcocystis neurona; observed: parasite growth; concentration: 10 µM; time: 96 h
Structure (SMILES)	inhibition [%]
O=C1CN=C(c2ccccc2)c2cc([N+](=O)[O-])ccc2N1	-13.4
Cc1ncc2n1-c1ccc(Cl)cc1C(c1ccccc1F)=NC2	-13.5
C[C@]12C/C(=C/O)C(=O)C[C@@H]1CC[C@@H]1[C@@H]2CC[C@@]2(C)[C@H]1CC[C@]2(C)O	-5.1
Cc1nnc2n1-c1ccc(Cl)cc1C(c1ccccc1)=NC2	-2.8
CC(NC(C)(C)C)C(=O)c1cccc(Cl)c1 (stereo not shown)	-12
COc1ccc(C(CN(C)C)C2(O)CCCCC2)cc1 (stereo not shown)	-6.9
NC(=O)C[S+]([O-])C(c1ccccc1)c1ccccc1 (stereo not shown)	-12.9
CNCC(O)c1ccc(O)cc1 (stereo not shown)	-15.6
C=C1C[C@@H]2[C@H](CC[C@]3(C)C(=O)CC[C@@H]23)[C@@]2(C)C=CC(=O)C=C12	-6.1
CN1C(=O)CN=C(c2ccccc2)c2cc([N+](=O)[O-])ccc21	-6.7

Study 4 — sample: plasma
SMILES: O=C1CCC(N2Cc3c(ccc4c3OCC43CCN(Cc4ccccc4)CC3)C2=O)C(=O)N1 (stereo not shown)
test system	setting	concentration
male CD-1 mouse	oral, 3 mg/kg, 15 min	258 ng/mL
male Sprague-Dawley rat	oral, 3 mg/kg, 30 min	62.7 ng/mL
male Sprague-Dawley rat	oral, 3 mg/kg, 2 h	182 ng/mL
male Sprague-Dawley rat	oral, 3 mg/kg, 4.98 min	3.4 ng/mL
male Sprague-Dawley rat	intravenous, 1 mg/kg, 2 h	118 ng/mL
male CD-1 mouse	oral, 3 mg/kg, 24 h	1.35 ng/mL
male CD-1 mouse	oral, 3 mg/kg, 4.98 min	83.1 ng/mL
male CD-1 mouse	intravenous, 1 mg/kg, 15 min	219 ng/mL
male Sprague-Dawley rat	oral, 3 mg/kg, 8 h	31 ng/mL
male CD-1 mouse	oral, 3 mg/kg, 4 h	101 ng/mL
male Sprague-Dawley rat	oral, 3 mg/kg, 1 h	106 ng/mL
male Sprague-Dawley rat	intravenous, 1 mg/kg, 8 h	16 ng/mL
male CD-1 mouse	intravenous, 1 mg/kg, 30 min	183 ng/mL

A few entries again (study 4):
test system	setting	concentration
male Sprague-Dawley rat	oral, 3 mg/kg, 1 h	106 ng/mL
male Sprague-Dawley rat	oral, 3 mg/kg, 30 min	62.7 ng/mL
male Sprague-Dawley rat	intravenous, 1 mg/kg, 8 h	16 ng/mL
male Sprague-Dawley rat	oral, 3 mg/kg, 4.98 min	3.4 ng/mL
